Measured values from different studies.
Lines come from different studies, so protocols differ. ± gives the spread as reported.
UniProt P34975, sequence (whole entry, looked up): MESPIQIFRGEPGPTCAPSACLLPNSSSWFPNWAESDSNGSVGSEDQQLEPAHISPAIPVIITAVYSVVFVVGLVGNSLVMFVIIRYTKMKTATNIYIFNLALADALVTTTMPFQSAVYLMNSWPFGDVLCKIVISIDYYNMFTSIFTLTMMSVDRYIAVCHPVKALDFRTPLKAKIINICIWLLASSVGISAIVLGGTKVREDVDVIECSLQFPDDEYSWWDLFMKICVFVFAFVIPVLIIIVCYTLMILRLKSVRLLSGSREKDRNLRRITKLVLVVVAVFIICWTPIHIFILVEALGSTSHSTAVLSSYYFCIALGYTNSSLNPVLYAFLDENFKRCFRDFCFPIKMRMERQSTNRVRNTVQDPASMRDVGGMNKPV
UniProt P35372, sequence (whole entry, looked up): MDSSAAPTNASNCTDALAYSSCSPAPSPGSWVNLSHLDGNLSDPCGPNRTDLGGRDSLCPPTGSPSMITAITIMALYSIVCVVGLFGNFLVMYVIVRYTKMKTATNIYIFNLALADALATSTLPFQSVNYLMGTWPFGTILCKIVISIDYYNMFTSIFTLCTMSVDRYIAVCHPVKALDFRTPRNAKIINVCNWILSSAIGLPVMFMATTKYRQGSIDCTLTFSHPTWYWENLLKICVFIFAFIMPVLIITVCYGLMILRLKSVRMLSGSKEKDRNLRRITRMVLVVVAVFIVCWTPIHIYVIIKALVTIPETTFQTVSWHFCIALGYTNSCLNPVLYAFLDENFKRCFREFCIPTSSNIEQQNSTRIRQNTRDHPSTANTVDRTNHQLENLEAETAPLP
UniProt P34972, sequence (whole entry, looked up): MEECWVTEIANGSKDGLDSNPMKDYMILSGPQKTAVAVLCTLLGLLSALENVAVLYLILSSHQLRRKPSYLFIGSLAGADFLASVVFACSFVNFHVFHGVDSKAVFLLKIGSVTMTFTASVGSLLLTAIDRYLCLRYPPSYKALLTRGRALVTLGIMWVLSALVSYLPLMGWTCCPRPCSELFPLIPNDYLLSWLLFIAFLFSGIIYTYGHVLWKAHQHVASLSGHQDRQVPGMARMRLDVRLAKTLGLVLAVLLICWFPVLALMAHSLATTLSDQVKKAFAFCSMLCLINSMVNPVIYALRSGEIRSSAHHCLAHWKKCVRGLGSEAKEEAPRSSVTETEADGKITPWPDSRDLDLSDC
UniProt P04775, sequence (whole entry, looked up): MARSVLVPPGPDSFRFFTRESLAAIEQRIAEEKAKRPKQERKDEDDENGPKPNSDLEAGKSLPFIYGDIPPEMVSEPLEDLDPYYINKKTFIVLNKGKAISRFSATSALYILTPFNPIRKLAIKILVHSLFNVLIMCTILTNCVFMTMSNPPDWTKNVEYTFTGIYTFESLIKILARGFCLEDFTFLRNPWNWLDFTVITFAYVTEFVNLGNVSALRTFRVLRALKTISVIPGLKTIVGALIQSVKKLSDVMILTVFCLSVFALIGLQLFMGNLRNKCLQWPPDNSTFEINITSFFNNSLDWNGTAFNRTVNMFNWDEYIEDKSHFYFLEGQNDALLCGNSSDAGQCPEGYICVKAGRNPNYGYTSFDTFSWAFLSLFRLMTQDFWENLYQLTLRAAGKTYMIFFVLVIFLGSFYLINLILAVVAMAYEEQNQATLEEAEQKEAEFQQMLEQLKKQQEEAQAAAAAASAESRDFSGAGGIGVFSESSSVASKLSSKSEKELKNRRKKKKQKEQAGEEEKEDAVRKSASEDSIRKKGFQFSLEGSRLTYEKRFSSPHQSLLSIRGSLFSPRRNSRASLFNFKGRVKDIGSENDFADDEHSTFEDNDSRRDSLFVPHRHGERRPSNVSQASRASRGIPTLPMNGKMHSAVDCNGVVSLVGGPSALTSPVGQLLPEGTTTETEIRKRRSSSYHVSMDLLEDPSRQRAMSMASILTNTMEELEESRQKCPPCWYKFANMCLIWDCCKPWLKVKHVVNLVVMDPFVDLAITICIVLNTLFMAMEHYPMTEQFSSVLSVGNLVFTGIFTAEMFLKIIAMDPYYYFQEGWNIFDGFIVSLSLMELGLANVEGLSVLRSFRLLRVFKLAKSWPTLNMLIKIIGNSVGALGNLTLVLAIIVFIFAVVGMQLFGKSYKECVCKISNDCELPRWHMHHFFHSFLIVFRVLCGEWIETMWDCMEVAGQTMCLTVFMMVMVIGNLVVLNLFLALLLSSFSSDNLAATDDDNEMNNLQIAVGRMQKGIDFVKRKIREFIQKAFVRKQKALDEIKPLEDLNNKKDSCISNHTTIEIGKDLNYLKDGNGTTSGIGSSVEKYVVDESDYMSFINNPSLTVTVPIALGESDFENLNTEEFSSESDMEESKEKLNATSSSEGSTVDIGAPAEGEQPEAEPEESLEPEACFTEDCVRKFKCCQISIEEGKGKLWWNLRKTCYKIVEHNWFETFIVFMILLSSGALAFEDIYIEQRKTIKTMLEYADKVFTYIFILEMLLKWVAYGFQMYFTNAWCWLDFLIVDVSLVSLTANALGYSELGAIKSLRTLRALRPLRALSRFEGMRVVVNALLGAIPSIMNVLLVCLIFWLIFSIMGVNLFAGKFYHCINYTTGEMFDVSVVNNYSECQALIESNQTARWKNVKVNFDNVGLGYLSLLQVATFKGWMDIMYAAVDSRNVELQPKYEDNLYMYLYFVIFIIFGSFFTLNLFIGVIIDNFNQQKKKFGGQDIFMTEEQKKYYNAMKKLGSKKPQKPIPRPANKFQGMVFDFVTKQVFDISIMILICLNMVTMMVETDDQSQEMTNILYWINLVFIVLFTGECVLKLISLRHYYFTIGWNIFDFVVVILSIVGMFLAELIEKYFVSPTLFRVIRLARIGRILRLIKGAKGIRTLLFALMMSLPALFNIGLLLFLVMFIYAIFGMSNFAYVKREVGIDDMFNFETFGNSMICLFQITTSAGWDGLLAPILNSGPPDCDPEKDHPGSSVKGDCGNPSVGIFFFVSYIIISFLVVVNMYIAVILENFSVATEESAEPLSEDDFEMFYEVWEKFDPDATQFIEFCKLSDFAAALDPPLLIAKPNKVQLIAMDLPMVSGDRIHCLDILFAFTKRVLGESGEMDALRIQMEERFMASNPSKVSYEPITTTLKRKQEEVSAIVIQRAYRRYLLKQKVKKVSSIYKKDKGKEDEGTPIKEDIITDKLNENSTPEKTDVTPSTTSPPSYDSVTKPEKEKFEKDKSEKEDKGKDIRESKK
UniProt P15151, sequence (whole entry, looked up): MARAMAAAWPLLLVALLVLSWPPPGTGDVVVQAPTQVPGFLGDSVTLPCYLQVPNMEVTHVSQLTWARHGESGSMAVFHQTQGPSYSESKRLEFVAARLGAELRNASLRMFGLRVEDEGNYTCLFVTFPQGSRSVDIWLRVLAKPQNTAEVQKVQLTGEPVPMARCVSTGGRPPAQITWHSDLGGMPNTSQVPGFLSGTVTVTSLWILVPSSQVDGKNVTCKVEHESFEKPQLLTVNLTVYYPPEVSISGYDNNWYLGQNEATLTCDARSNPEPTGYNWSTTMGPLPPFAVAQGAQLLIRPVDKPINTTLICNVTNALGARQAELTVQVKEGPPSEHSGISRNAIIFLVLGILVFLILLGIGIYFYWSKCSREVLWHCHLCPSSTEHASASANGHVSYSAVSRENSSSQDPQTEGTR
UniProt Q8NER1, sequence (whole entry, looked up): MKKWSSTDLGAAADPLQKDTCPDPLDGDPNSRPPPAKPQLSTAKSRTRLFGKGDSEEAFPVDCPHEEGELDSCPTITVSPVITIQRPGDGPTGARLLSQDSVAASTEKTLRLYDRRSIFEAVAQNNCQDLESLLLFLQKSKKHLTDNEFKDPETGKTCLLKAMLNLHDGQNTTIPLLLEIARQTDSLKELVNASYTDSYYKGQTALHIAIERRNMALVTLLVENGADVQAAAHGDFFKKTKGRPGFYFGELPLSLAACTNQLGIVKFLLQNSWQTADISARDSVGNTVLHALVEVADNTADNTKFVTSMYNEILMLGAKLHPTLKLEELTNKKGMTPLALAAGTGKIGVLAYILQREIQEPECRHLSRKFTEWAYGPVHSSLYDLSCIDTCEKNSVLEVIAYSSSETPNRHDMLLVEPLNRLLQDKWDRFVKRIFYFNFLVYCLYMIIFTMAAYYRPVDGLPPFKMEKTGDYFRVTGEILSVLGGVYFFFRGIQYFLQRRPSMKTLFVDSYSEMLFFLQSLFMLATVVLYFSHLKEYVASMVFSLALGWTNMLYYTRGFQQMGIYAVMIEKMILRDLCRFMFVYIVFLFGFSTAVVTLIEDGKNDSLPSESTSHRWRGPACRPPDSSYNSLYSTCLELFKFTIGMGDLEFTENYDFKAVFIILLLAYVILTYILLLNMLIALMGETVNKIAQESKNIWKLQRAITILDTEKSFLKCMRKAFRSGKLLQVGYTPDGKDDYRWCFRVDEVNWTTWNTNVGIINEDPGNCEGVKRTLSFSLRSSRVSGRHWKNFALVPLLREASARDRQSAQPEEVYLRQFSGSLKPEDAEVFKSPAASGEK
UniProt P48546, sequence (whole entry, looked up): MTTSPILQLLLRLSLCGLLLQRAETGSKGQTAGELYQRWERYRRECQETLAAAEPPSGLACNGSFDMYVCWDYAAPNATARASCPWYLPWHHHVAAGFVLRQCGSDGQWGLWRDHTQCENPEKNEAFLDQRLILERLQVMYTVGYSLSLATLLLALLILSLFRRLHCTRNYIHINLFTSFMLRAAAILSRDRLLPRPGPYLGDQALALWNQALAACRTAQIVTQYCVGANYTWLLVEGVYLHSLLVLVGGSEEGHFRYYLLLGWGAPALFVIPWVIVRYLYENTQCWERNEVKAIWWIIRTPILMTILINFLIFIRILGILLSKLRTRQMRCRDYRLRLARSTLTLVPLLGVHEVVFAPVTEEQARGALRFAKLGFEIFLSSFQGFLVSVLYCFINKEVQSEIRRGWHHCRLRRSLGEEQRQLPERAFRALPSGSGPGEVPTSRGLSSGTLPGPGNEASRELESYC

Compound | target | test | test system | setting | scale | endpoint | result
CC[C@H](C)[C@H](NC(=O)[C@H](CCCNC(=N)N)NC(=O)[C@H](CCCNC(=N)N)NC(=O)[C@H](CC(C)C)NC(=O)[C@H](Cc1ccccc1)NC(=O)CNC(=O)CNC(=O)[C@@H](N)Cc1ccc(O)cc1)C(=O)N[C@@H](CCCNC(=N)N)C(=O)N1CCC[C@H]1C(=O)N[C@@H](CCCCN)C(=O)N[C@@H](CC(C)C)C(=O)N[C@@H](CCCCN)C(N)=O | Oprk1 (Rattus norvegicus, UniProt P34975) | agonist |  | concentration not given |  | time to peak hyperpolarisation | ~30 s
NS(=O)(=O)c1ccc(NC(=O)c2ccccc2SSc2ccccc2C(=O)Nc2ccc(S(N)(=O)=O)cc2)cc1 | Gag-Pol polyprotein, integrase residues 50-288 (gag-pol, Human immunodeficiency virus type 1 group M subtype B, UniProt P04585, C1427S) | DNA binding, fluorescence anisotropy | integrase ΔN | compound:IN ratio 3:1, with: 10 mM Mn2+, U5 DNA |  | Hill coefficient | 1.3 ± 0.13
C[Si]1(C[C@H](CN)CC(=O)O)CCCC1 | TRPV1 (Homo sapiens, UniProt Q8NER1) | ligand displacement, radioligand |  | 70 µM |  | inhibition | -5%
CC(C)C[C@H](NC(=O)[C@H](CCCCN)NC(=O)[C@H](Cc1c[nH]c2ccccc12)NC(=O)[C@H](CCCCN)NC(=O)[C@@H]1CSSC[C@@H]2NC(=O)[C@H](CCC(=O)O)NC(=O)[C@H](CC(N)=O)NC(=O)[C@H](CCCCN)NC(=O)CNC(=O)[C@@H]3CCCN3C(=O)[C@H]([C@@H](C)O)NC(=O)[C@@H]3CSSC[C@H](NC(=O)[C@H](C(C)C)NC(=O)[C@H](CCCNC(=N)N)NC(=O)[C@H](CC(N)=O)NC(=O)[C@@H]4CCCN4C(=O)[C@H](CSSC[C@H](NC(=O)[C@H](C)N)C(=O)N[C@@H](CCCCN)C(=O)NCC(=O)N[C@@H](C(C)C)C(=O)N[C@@H](Cc4ccccc4)C(=O)N[C@@H](CC(=O)O)C(=O)N[C@@H](C)C(=O)N3)NC2=O)C(=O)N[C@@H](CO)C(=O)N[C@@H](CC(=O)O)C(=O)N[C@@H](CCCCN)C(=O)N[C@@H](Cc2c[nH]cn2)C(=O)N[C@@H](CCCCN)C(=O)N[C@@H](Cc2c[nH]c3ccccc23)C(=O)N1)C(N)=O | Scn2a (Rattus norvegicus, UniProt P04775) | ion current, inhibitor, two-electrode voltage clamp |  | 1 µM, pH 7.4, oocytes |  | inhibition | 84.4%
C[C@@H](NC(=O)[C@@H](N)Cc1ccc(O)cc1)C(=O)N[C@@H](Cc1ccccc1)C(=O)NCC(=O)N[C@@H](Cc1ccc(O)cc1)C(=O)N1CCC[C@H]1C(=O)N[C@@H](CO)C(N)=O | OPRM1 (Homo sapiens, UniProt P35372) | calcium signal, agonist |  |  |  | Emax | 186%
CC[C@H](C)[C@H](NC(=O)[C@H](CCCN)NC(=O)[C@H](CC(=O)O)NC(=O)[C@H](CC(C)C)NC(=O)C(C)(CC(C)C)NC(=O)[C@@H](NC(=O)[C@H](CO)NC(=O)[C@H](Cc1ccc(O)cc1)NC(=O)[C@H](CC(=O)O)NC(=O)[C@H](CO)NC(=O)[C@@H](NC(=O)[C@H](Cc1ccccc1)NC(=O)[C@@H](NC(=O)CNC(=O)[C@H](CCC(=O)O)NC(=O)C(C)(C)NC(=O)[C@@H](N)Cc1ccc(O)cc1)[C@@H](C)O)[C@@H](C)CC)[C@@H](C)CC)C(=O)N[C@@H](Cc1c[nH]cn1)C(=O)N[C@@H](CCC(N)=O)C(=O)NC(C)(C)C(=O)N[C@@H](CC(=O)O)C(=O)N[C@@H](Cc1ccccc1)C(=O)N[C@H](C(=O)N[C@@H](CCC(=O)O)C(=O)N[C@@H](Cc1ccc(O)cc1)C(=O)N[C@@H](CCCCNC(=O)COCCOCCNC(=O)COCCOCCNC(=O)CC[C@H](NC(=O)CCCCCCCCCCCCCCCCCCC(=O)O)C(=O)O)C(=O)N[C@@H](CC(C)C)C(=O)N[C@@H](CCC(=O)O)C(=O)NCC(=O)NCC(=O)N1CCC[C@H]1C(=O)N[C@@H](CO)C(=O)N[C@@H](CO)C(=O)NCC(=O)N[C@@H](C)C(=O)N1CCC[C@H]1C(=O)N1CCC[C@H]1C(=O)N1CCC[C@H]1C(=O)N[C@@H](CO)C(N)=O)C(C)C (stereo partly drawn) | GIPR (Homo sapiens, UniProt P48546) | cAMP accumulation, agonist | HEK293 expressing human GIPR | 0.1% casein, 1.0% HSA | reference: human GIP(1-42)NH2 maximal response | Emax | 101 ± 3%
CC[C@H](C)[C@@H]1NC(=O)[C@H](Cc2ccc(O)cc2)NC(=O)[C@H](CC(C)C)NC(=O)[C@@H]2CCCN2C(=O)[C@H](CCC(=O)O)NC(=O)[C@H](CCC(N)=O)NC(=O)[C@H](CCSC)NC(=O)[C@H](Cc2ccccc2)NC(=O)[C@@H](NC(=O)[C@H](C)N)CSCC(=NOCC(=O)NC/C=C/S(C)(=O)=O)CSC[C@@H](C(=O)NCC(N)=O)NC1=O | Genome polyprotein, NIa protease (Tobacco etch virus, UniProt P04517) | covalent inhibitor |  | Genome polyprotein 50 nM |  | kinact/KI | 6500 ± 130 M⁻¹ s⁻¹
CC(C)C[C@@H]1NC(=O)[C@@H](NC(=O)[C@H](CC(=O)O)NC(=O)[C@H](C)N)CSSC[C@@H]2NC(=O)[C@@H]3CSSC[C@@H](C(=O)N[C@@H](CCCNC(=N)N)C(=O)O)NC(=O)[C@H](CCCNC(=N)N)NC(=O)[C@H](CCC(N)=O)NC(=O)[C@H](CCC(=O)O)NC(=O)[C@@H]4CCCN4C(=O)[C@H](CC(N)=O)NC(=O)[C@H]([C@@H](C)O)NC(=O)CNC(=O)[C@H](CCCNC(=N)N)NC(=O)[C@H](CCCNC(=N)N)NC(=O)[C@H](CO)NC(=O)[C@H](CSSC[C@H](NC(=O)[C@H](CC(C)C)NC(=O)[C@H](CCCCN)NC(=O)[C@H](CC(C)C)NC(=O)[C@H](Cc4c[nH]cn4)NC(=O)[C@H](C)NC1=O)C(=O)N[C@@H](CCCCN)C(=O)N[C@@H](CCCCN)C(=O)N[C@@H](CC(N)=O)C(=O)N[C@@H](CCCCN)C(=O)N[C@@H](CC(=O)O)C(=O)N3)NC(=O)[C@H](CCCCN)NC(=O)[C@H](CCCCN)NC(=O)[C@H](CO)NC2=O | RYR1 (Oryctolagus cuniculus, UniProt P11716) | activator |  | 100 nM, pCa 6 | reference: control at pCa 5 | specific [3H]ryanodine binding | 296 ± 14.6%
CC[C@H](C)[C@H](N)C(=O)N[C@@H](CO)C(=O)N[C@@H](Cc1ccccc1)C(=O)N[C@@H]1CSCc2ccc(cc2)-c2ccc(cc2)CSC[C@@H](C(=O)N[C@@H](CCC(=O)O)C(=O)N[C@@H](CO)C(=O)NCC(=O)N[C@@H](CO)C(N)=O)NC(=O)[C@H](Cc2ccc(O)cc2)NC(=O)[C@H](Cc2ccc(O)cc2)NC(=O)[C@H](CC(=O)O)NC(=O)[C@H](CC(C)C)NC(=O)[C@H](CC(C)C)NC(=O)[C@H](CCC(=O)O)NC1=O | env (Human immunodeficiency virus type 1 group M subtype B, UniProt P35961) | binding, SPR |  |  |  | koff | 0.00553 s⁻¹
CC[C@H](C)[C@H](N)C(=O)N[C@@H](CC(N)=O)C(=O)N[C@@H](CC(N)=O)C(=O)N[C@H](C(=O)N1C[C@@H](n2cc([C]34[CH]5[CH]6[CH]7[CH]3[Fe]6754389%10[CH]4[CH]3[CH]8[CH]9[CH]4%10)nn2)C[C@H]1C(=O)N[C@@H](Cc1cn(C)c2ccccc12)C(N)=O)[C@@H](C)CC (stereo partly drawn) | Envelope glycoprotein gp160, gp120 (env, Human immunodeficiency virus type 1 group M subtype B, UniProt P35961, T253A) | ITC |  | concentration not given, gp120 T257A mutant |  | binding enthalpy | -11 ± 0.9 kcal/mol
C#CCCCCOc1ccc2c(c1)CCCN2C(=O)CCl | Poliovirus receptor (PVR, Homo sapiens, UniProt P15151) | MS-ABPP alkyne probe | H460 cell lysate |  | reference: high over low probe | cysteine reactivity ratio | 1.23
CC(C)C[C@@H]1NC(=O)[C@@H]2CCCN2C(=O)[C@H](CC(=O)O)NC(=O)CNC(=O)[C@H](CC(N)=O)NC(=O)[C@H](CCCCN)NC(=O)[C@H]([C@@H](C)O)NC(=O)[C@@H](N)CSCc2cc3cc(c2)CSC[C@H](NC(=O)[C@@H]2CCCN2C1=O)C(=O)NCC(=O)N[C@@H](CCC(=O)O)C(=O)N[C@@H]([C@@H](C)O)C(=O)N[C@H](C(N)=O)CSC3 | CNR2 (Homo sapiens, UniProt P34972) | β-arrestin-2 recruitment | HEK293 | concentration not given, with: 2-AG 1 µM |  | decrease in efficacy | ~30%

A few entries again:
Compound | target | test | test system | setting | scale | endpoint | result
CC[C@H](C)[C@H](N)C(=O)N[C@@H](CO)C(=O)N[C@@H](Cc1ccccc1)C(=O)N[C@@H]1CSCc2ccc(cc2)-c2ccc(cc2)CSC[C@@H](C(=O)N[C@@H](CCC(=O)O)C(=O)N[C@@H](CO)C(=O)NCC(=O)N[C@@H](CO)C(N)=O)NC(=O)[C@H](Cc2ccc(O)cc2)NC(=O)[C@H](Cc2ccc(O)cc2)NC(=O)[C@H](CC(=O)O)NC(=O)[C@H](CC(C)C)NC(=O)[C@H](CC(C)C)NC(=O)[C@H](CCC(=O)O)NC1=O | env (Human immunodeficiency virus type 1 group M subtype B, UniProt P35961) | binding, SPR |  |  |  | koff | 0.00553 s⁻¹
